Published values collected from several papers.
Lines come from different studies, so protocols differ. ± gives the spread as reported.
ADORA1: Adenosine receptor A1 (ADORA1, Homo sapiens, UniProt P30542)
ABO G235S/G268A/L266M/R176G: Histo-blood group ABO system transferase (ABO, Homo sapiens, UniProt P16442, G235S/G268A/L266M/R176G)
SLC10A2: Ileal sodium/bile acid cotransporter (SLC10A2, Homo sapiens, UniProt Q12908)
T1: DNA aptamer; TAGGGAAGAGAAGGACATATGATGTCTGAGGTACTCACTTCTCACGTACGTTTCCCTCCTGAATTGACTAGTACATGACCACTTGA

`CCCn1c(=O)c2[nH]c(-c3ccc(OCC(=O)NCCNC(=O)CCCCCNS(=O)(=O)c4ccc(C5=c6cc7c8c(c6Oc6c5cc5c9c6CCCN9CCC5)CCC[N+]=8CCC7)c(S(=O)(=O)[O-])c4)cc3)nc2n(CCC)c1=O` — result for “inverse agonist response”: 1.26 ± 0.06 fold increase (ADORA1; CRE reporter gene, inverse agonist; CHO-A1; concentration not given, with: forskolin; reference: forskolin alone).
For `C=CCCCCCCO[C@@H]1O[C@H](CO)[C@@H](O)[C@H](O[C@@H]2O[C@H](CO)[C@H](O)[C@H](O)[C@H]2O[C@@H]2O[C@@H](C)[C@@H](O)[C@@H](O)[C@@H]2O)[C@H]1NC(C)=O`, the kon was 500000 M⁻¹ s⁻¹ (ABO G235S/G268A/L266M/R176G; methyl-TROSY NMR titration lineshape analysis; apo enzyme).
`Cc1ccc(Oc2cc(C(=O)NCc3ccccn3)nc3ccsc23)cn1`: PAM activity “inactive” (Muscarinic acetylcholine receptor M1 (CHRM1, Homo sapiens, UniProt P11229); positive allosteric modulator; concentration not given).
`CNc1ccccc1C(=O)O[C@H]1C[C@H](n2cnc3c(N)ncnc32)O[C@@H]1COP(=O)(O)OP(=O)(O)O` — result for “dissociation rate, fast phase”: ~10 fold (Unconventional myosin-Va (Gallus gallus, UniProt Q02440, D297C/G292C/I296C/S293C/V295G); stopped-flow FRET; with: 4 mM EDTA; reference: with Mg).
The receptor occupancy of `Nc1nc2cnc(C(=O)N3CCOC[C@@H]3c3ccc(C(F)(F)F)cc3)cc2c2c1COC2` is reported as ~25% (Protein arginine N-methyltransferase 5, SAM-bound (PRMT5, Homo sapiens, UniProt O14744); SPR; concentration not given, with: SAM).
With `CC(=O)N(Cc1ccccc1)[C@@H](C)C(=O)N(C)[C@@H](C)C(=O)N(Cc1c[nH]c2cc(Cl)ccc12)[C@@H](C)C(=O)N(C)[C@@H](C)C(=O)N(CCC(C)(C)C)[C@@H](C)C(=O)N1CCNCC1` the kon was 6.9e+06 M⁻¹ s⁻¹ (E3 ubiquitin-protein ligase Mdm2, N-terminal domain 17-125 (MDM2, Homo sapiens, UniProt Q00987); binding, SPR; PBS with Tween; 10 °C, immobilised peptoid).
Under ciliary accumulation, `O=C(CCCCCCNc1ccc(C(=O)Nc2ccc(Cl)c(NC(=O)c3cccc(Cl)c3)c2)cn1)NO` is recorded as “no effect” (Protein smoothened (SMO, Homo sapiens, UniProt Q99835, W535L); Smo ciliary translocation; NIH3T3 expressing SMO-EYFP; with: Shh-N or SAG 100 nM).
`O=C(N1CCCC1)n1cc(-c2ccc(-c3ccccc3)cc2)nn1` gave an activity reduction of ~40% (Monoacylglycerol lipase ABHD6 (Abhd6, Mus musculus, UniProt Q8R2Y0); competitive ABPP-SILAC; mouse T cells; 3 nM, 4 h).
`C[C@H](CCC(=O)N[C@@H](CCC(=O)Nc1cncc(F)c1)C(=O)O)[C@H]1CC[C@H]2[C@@H]3[C@H](O)C[C@@H]4C[C@H](O)CC[C@]4(C)[C@H]3CC[C@]12C` gave a normalized Jmax/Kt of 0.084 µM⁻¹ (SLC10A2; transport efficiency, substrate, LC-MS/MS; ASBT-MDCK).
With `CCCCCC(C)NCC(=O)O` (centres unmarked) the α-helix content was 49.3% (Albumin (ALB, Homo sapiens, UniProt P02768); circular dichroism; 0.12 mM).
`CC(C)CC(NC(=O)C(NC(=O)NC(C(=O)O)C(C)C)C1CCNC(=N)N1)C(=O)NCCCNC(C(=O)O)C(OC1OC(CN)C(O)C1O)C1OC(n2ccc(=O)[nH]c2=O)C(O)C1O` (centres unmarked) gave a ΔH of -7.2 ± 0.2 kcal/mol (Phospho-N-acetylmuramoyl-pentapeptide-transferase (mraY, Aquifex aeolicus, UniProt O66465, K70A); ITC; K70A mutant).
`CCC(=C(c1ccc(Cl)cc1)c1ccc(OCCN(C)C)cc1)c1ccc(OC)cc1` — result for “β-galactosidase activity fold”: 5.49 (Estrogen receptor (ESR1, Homo sapiens, UniProt P03372); reporter gene, agonist, yeast estrogen screen; 1 µM; reference: DMSO).
`C#CCCCC[C@H](C)C[C@@H](C)C(=O)N(C)[C@@H](C)C(=O)N1CCC[C@H]1C(=O)N(C)[C@H](C(=O)N(C)[C@H](C(=O)OC)C(C)C)C(C)C`: “stabilization temperature limit” ≤ 46 °C (Apoptosis regulator Bcl-2 (BCL2, Homo sapiens, UniProt P10415); cellular thermal shift; DU-145; highest temperature with stabilization).
The Hill slope of `CC(C)CCC[C@@H](C)[C@H]1CC[C@H]2[C@@H]3CC=C4C[C@@H](OS(=O)(=O)O)CC[C@]4(C)[C@H]3CC[C@]12C` is reported as 1.9 ± 0.7 (Prothrombin (F2, Homo sapiens, UniProt P00734); enzyme activity, inhibitor; with: hirudin peptide 0 nM).
Under “binding enthalpy magnitude”, `CC[C@H](C)[C@H](NC(=O)[C@@H](NC(=O)[C@H](CS)NC(=O)[C@H](CCSC)NC(C)=O)[C@@H](C)O)C(=O)N[C@@H](CC(=O)O)C(=O)N[C@@H](Cc1ccc(F)cc1)C(=O)N[C@@H](CC(=O)O)C(=O)N[C@@H](CCC(=O)O)C(=O)N[C@@H](Cc1ccc(O)cc1)C(=O)N[C@@H](CCCNC(=N)N)C(=O)N[C@@H](Cc1ccc(F)cc1)C(=O)N[C@@H](CCCNC(=N)N)C(=O)N[C@@H](CCCCN)C(=O)N[C@H](C(N)=O)[C@@H](C)O` is recorded as 24.6 kcal/mol (Breast cancer type 1 susceptibility protein, tandem BRCT domains (BRCA1, Homo sapiens, UniProt P38398); isothermal titration calorimetry; concentration not given, pH 7.4, 25 °C, negative ΔH).
`Cc1ccc2ccc3ccc(C)nc3c2n1.Cc1ccc2ccc3ccc(C)nc3c2n1.O.[Cl-].[Cl-].[Cl-].[Yb+3]`: “number of binding sites” 1.17 (Albumin (ALB, Bos taurus, UniProt P02769); fluorescence quenching titration; concentration not given, 290 K).
For `O=C(Nc1cc(C(=O)Nc2ccc(S(=O)(=O)O)cc2)cc(C(=O)Nc2ccc(S(=O)(=O)O)cc2)c1)Nc1cc(C(=O)Nc2ccc(S(=O)(=O)O)cc2)cc(C(=O)Nc2ccc(S(=O)(=O)O)cc2)c1`, the maximal inhibition was 104 ± 2.7% (Neutrophil elastase (ELANE, Homo sapiens, UniProt P08246); enzyme activity, inhibitor, chromogenic substrate hydrolysis; pH 7.4, 37 °C, 100 mM NaCl, with: substrate S-1384).
`Nc1nc2ccccc2n1Cc1ccccc1`: binding “binds” (Beta-secretase 1 (BACE1, Homo sapiens, UniProt P56817, D93N); binder, surface plasmon resonance; concentration not given, D32N catalytic-site mutant).
`CS(=O)(=O)CCC1NC(=O)C(Cc2ccco2)NC(=O)C(CC2CC2)NC(=O)C=CC(=O)NC(C(N)=O)CCNC1=O` (centres unmarked) has an enrichment factor of 0.65 (MAP kinase-activated protein kinase 2 (MAPKAPK2, Homo sapiens, UniProt P49137); DNA-templated library selection; one selection round).
The koff of `CCCCCCCCO[C@@H]1O[C@H](CO)[C@H](O)[C@H](O)[C@H]1O[C@@H]1O[C@@H](C)[C@@H](O)[C@@H](O)[C@@H]1O` is reported as 6.9 ± 0.4 s⁻¹ (ABO G235S/G268A/L266M/R176G; methyl-TROSY NMR titration lineshape; two-state binding model, with: acceptor binding, saturating UDP).
`COc1cccc(-c2c(C#N)c(N)nc(SCc3ncc[nH]3)c2C#N)c1` has an Emax of 23% (ADORA1; cAMP, agonist).
`O=C(NC1CC=C(c2cc3c(Nc4cc5ncsc5cc4F)ncnc3s2)CC1)NC1CC1` (racemic) gave a remaining activity of 99 ± 2% (Receptor-interacting serine/threonine-protein kinase 1 (RIPK1, Homo sapiens, UniProt Q13546); enzyme activity; 1 µM; reference: untreated).
For `CC(C)C[C@H](NC(=O)[C@H](CC(C)C)NC(=O)[C@H](CC(N)=O)NC(=O)[C@H](Cc1c[nH]c2ccccc12)NC(=O)[C@H](Cc1ccc(O)cc1)NC(=O)[C@H](CCC(=O)O)NC(=O)[C@H](C)NC(=O)[C@@H](N)Cc1ccccc1)C(=O)O`, “fold increase in Kd” read 2780 fold (E3 ubiquitin-protein ligase Mdm2 (MDM2, Homo sapiens, UniProt Q00987); SPR competition binding; reference: PMI).
For `CC1=C(/C=C/C(C)=C\C=C\C(C)=C\C=O)C(C)(C)CCC1`, “cell surface expression” read ~6 fold (Rhodopsin (RHO, Homo sapiens, UniProt P08100, T289P); pharmacological chaperone, immunostaining, nonpermeabilized cells; 661W; 2.5 µM, 16 h; reference: untreated cells).
Under “thermal shift ΔTm”, `COc1cc(-c2cnc3nc2NCCCNS(=O)(=O)c2cccc(c2)N3)ccc1F` is recorded as 6.3 K (Vascular endothelial growth factor receptor 1 (FLT1, Homo sapiens, UniProt P17948); differential scanning fluorimetry; 10 µM; higher = stronger binding).
For `Nc1ncnc2c1ncn2C1OC(COP(=O)(O)OP(=O)(O)OCC2OC(O)C(O)C2O)C(O)C1O` (centres unmarked), the maximal current was 1 (TRPM2 (Nematostella vectensis, UniProt A7T1N0); channel current, activator, inside-out patch clamp; global fit with epsilon analogue, unit not given; reference: 100 µM compound).
`C[C@H](CCC(=O)N[C@@H](CCC(=O)Nc1cncc(Br)c1)C(=O)O)[C@H]1CC[C@H]2[C@@H]3[C@H](O)C[C@@H]4C[C@H](O)CC[C@]4(C)[C@H]3CC[C@]12C` gave a Jmax of 0.67 (SLC10A2; transport, substrate; ASBT-MDCK cells; unit not given; reference: taurocholate Jmax).
`Cc1ccc(C)c2sc(NC(=O)C3CCN(S(=O)(=O)c4ccc(F)cc4)CC3)nc12`: enzyme activity “increased” (N-acyl-phosphatidylethanolamine-hydrolyzing phospholipase D (Homo sapiens, UniProt Q6IQ20); activator; HepG2; concentration not given, with: flame-NAPE substrate).
`COc1ccc(C(=O)c2c(C(=O)NCCCN(C)C)oc3ccc(Cl)cc3c2=O)cc1OC`: calcium mobilization “inhibited” (Growth hormone secretagogue receptor type 1 (GHSR, Homo sapiens, UniProt Q92847); agonist; Gαq/11 knockout HEK293 cells; 10 µM; reference: wild-type cells).
`CCNC(=O)[C@H]1O[C@@H](n2cnc3c(NCCCCCCCCNC(=O)CCCCCNC(=O)COc4ccc(/C=C/C5=[N+]6C(=Cc7ccc(-c8cccs8)n7[B-]6(F)F)C=C5)cc4)ncnc32)[C@H](O)[C@@H]1O` — result for “log Kd minus log IC50”: 1.28 (ADORA1; CRE reporter gene; CHO-A1; Gi response, with: forskolin).
The Kd of `CC(=O)[C@H]1CC[C@H]2[C@@H]3CCC4=CC(=NOCC(=O)O)CC[C@]4(C)[C@H]3CC[C@]12C` is reported as 0.57 nM (T1, DNA aptamer; plate-ELAA; NaCl 100 mM).
For `N=C(N)NCCC[C@H](NC(=O)[C@H](Cc1ccccc1)NC(=O)[C@@H](N)CO)C(=O)N[C@@H](CC(N)=O)C(N)=O`, the bias factor was 14.6 (Neuropeptide S receptor (Mus musculus, UniProt Q8BZP8); calcium vs cAMP signalling, agonist; HEK-293T cells; higher = calcium bias).
